Assay results pooled from the literature.
Numbered parts are unrelated; each lists some results of a single study.

Sample 1
Target: Centromere-binding protein 1, full length, N-terminal tag (CBF1, Saccharomyces cerevisiae, UniProt P17106, residues 1-351)
Sequence of UniProt P17106 (whole entry, looked up): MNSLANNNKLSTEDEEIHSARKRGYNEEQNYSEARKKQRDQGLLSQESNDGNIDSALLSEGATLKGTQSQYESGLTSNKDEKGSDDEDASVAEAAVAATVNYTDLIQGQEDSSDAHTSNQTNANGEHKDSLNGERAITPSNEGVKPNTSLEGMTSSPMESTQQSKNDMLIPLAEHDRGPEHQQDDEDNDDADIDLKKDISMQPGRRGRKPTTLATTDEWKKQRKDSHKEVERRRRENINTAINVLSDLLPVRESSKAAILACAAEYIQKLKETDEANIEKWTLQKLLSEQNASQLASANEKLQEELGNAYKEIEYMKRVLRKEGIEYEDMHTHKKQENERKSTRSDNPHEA
Method: protein-binding microarray
Molecule type: double-stranded DNA, one strand shown
Sample: in vitro
Concentration: 0.8 µM
Setting: whole 60-bp probe, no competitor
Direction: higher = stronger binding
| Sequence | fluorescence intensity [a.u.] |
| --- | --- |
| CCTAACTACTATAAATACGGGTCATAGCTTCGTACAGTCTTGATTCGCTTGACGCTGCTG | 523 |
| GAATCCAAATCTGATCACGTTAGGAAATATACATAGGTCTTGATTCGCTTGACGCTGCTG | 1640 |
| GAATAAACTTCCTACCCCGTGTTATTAAGATCATAGGTCTTGATTCGCTTGACGCTGCTG | 690 |

Sample 2
Target: Histone acetyltransferase KAT6A, winged helix 1, GST fusion (KAT6A, Homo sapiens, UniProt Q92794, residues 1-85)
Method: protein binding microarray
Molecule type: double-stranded DNA, one strand shown
Sample: in vitro
Concentration: not given
Setting: 8-mer, flanks averaged, mean of 2 arrays, mostly near background
Reference: not given
Direction: higher = stronger binding
Target sequence (chain): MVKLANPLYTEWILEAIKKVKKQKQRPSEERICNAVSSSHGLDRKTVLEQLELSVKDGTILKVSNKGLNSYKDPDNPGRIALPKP
| Sequence | E-score |
| --- | --- |
| CCCTCGAG | -0.201 |
| CTGAATAC | -0.0654 |
| AACCCGGA | 0.166 |
| AAAGATGC | 0.00215 |
| ACAAACCA | -0.263 |

Sample 3
Target: Sal-like protein 4, full length isoform A (SALL4, Homo sapiens, UniProt Q9UJQ4, residues 1-1053)
Sequence of UniProt Q9UJQ4 (whole entry, looked up): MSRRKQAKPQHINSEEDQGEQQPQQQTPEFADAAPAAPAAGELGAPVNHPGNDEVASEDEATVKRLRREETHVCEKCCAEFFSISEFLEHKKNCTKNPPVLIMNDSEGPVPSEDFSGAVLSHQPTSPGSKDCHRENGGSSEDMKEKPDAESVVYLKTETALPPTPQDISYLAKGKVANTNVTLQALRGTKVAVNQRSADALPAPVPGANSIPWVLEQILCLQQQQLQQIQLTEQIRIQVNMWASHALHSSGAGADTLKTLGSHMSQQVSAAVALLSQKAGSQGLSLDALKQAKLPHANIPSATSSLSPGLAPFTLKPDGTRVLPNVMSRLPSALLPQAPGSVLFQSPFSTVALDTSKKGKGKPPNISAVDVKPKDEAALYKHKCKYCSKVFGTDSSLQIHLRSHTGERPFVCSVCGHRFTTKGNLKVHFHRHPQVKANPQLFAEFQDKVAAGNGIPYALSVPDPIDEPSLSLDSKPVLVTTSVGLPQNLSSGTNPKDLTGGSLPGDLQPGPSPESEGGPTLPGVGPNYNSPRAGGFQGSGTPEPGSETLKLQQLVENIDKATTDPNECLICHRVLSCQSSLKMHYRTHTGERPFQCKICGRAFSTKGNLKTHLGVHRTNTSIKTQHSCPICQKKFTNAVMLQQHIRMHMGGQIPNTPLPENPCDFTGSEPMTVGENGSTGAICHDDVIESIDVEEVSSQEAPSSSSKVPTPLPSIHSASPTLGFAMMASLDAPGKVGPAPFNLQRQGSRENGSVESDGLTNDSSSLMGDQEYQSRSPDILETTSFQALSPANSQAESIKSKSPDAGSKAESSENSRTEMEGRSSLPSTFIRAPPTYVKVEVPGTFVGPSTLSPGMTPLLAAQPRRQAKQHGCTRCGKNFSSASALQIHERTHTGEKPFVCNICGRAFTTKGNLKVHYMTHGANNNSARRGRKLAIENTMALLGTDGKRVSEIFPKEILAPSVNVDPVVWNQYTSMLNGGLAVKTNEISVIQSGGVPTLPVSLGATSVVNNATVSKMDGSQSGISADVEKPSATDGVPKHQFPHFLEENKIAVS
Method: universal PBM
Molecule type: double-stranded DNA, one strand shown
Sample: in vitro
Concentration: 600 nM
Setting: 8-mer, flanks averaged, mean of replicates
Direction: higher = stronger binding
| Sequence | E-score |
| --- | --- |
| CTGCTACC | -0.0482 |
| GAGGCGAA | -0.187 |
| ACTCCCTC | -0.233 |
| ACGTTTCA | 0.0297 |

Further values, each from its own experiment
| Substance | target | test | system | setting | scale | measurement | value |
| --- | --- | --- | --- | --- | --- | --- | --- |
| PhoQ, residues 284 288 289 292 302 303 TGYLSA | PhoP, residues 12 14 15 18 19 SEGLL (Escherichia coli, UniProt P23836) | Sort-seq, refers to: YFP reporter | E. coli | PhoQ-PhoP variant library, together with: 10 µM Mg2+ | reference: high Mg2+ state, higher = stronger signaling | fold induction | 17.9 |

A few entries again (further values, each from its own experiment):
| Substance | target | test | system | setting | scale | measurement | value |
| --- | --- | --- | --- | --- | --- | --- | --- |
| PhoQ, residues 284 288 289 292 302 303 TGYLSA | PhoP, residues 12 14 15 18 19 SEGLL (Escherichia coli, UniProt P23836) | Sort-seq, refers to: YFP reporter | E. coli | PhoQ-PhoP variant library, together with: 10 µM Mg2+ | reference: high Mg2+ state, higher = stronger signaling | fold induction | 17.9 |
